{"data": "Experimental data of several laboratories", "rep main protease": "Replicase polyprotein 1ab, main protease (rep, Severe acute respiratory syndrome-related coronavirus, UniProt P0C6X7)", "rep papain-like protease": "Replicase polyprotein 1ab, papain-like protease (rep, Severe acute respiratory syndrome-related coronavirus, UniProt P0C6X7)", "note": "Protocols differ between the studies behind these lines. Numbers after ± are the reported error."}
{"Structure (SMILES)": "CC[C@H](C)[C@H](N)C(=O)N[C@@H](CC(N)=O)C(=O)N[C@@H](CC(N)=O)C(=O)N[C@H](C(=O)N1C[C@@H](n2cc([C]34[CH]5[CH]6[CH]7[CH]3[Fe]6754389%10[CH]4[CH]3[CH]8[CH]9[CH]4%10)nn2)C[C@H]1C(=O)N[C@@H](Cc1cn(C)c2ccccc12)C(N)=O)[C@@H](C)CC (stereo partly drawn)", "target or system": "Envelope glycoprotein gp160, gp120 (env, Human immunodeficiency virus type 1 group M subtype B, UniProt P35961, S370A)", "assay": "ITC", "setting": "gp120 S375A mutant", "measurement": "−TΔS", "value": "0.4 ± 0.1 kcal/mol"}
{"Structure (SMILES)": "Oc1cc(O)cc(Oc2c(O)cc(O)cc2Oc2c(O)cc(O)cc2O)c1", "target or system": "rep main protease", "system": "Vero", "setting": "200 µM", "measurement": "inhibition", "value": "15%"}
{"Structure (SMILES)": "CC[C@H](C)[C@H](NC(=O)[C@H](CCCCN)NC(=O)[C@H](CCCCN)NC(=O)[C@H](CC(C)C)NC(=O)[C@H](Cc1c[nH]c2ccccc12)NC(=O)CN)C(=O)NCC(=O)N[C@@H](CCCCN)C(=O)N[C@@H](CCCCN)C(=O)N[C@H](C(=O)N[C@@H](CCC(=O)O)C(=O)N[C@@H](CCCNC(=N)N)C(=O)N[C@H](C(=O)NCC(=O)N[C@@H](CCC(N)=O)C(=O)N[C@@H](Cc1c[nH]cn1)C(=O)N[C@H](C(=O)N[C@@H](CCCNC(=N)N)C(=O)N[C@@H](CC(=O)O)C(=O)N[C@@H](C)C(=O)N[C@H](C(=O)N[C@H](C(=O)N[C@@H](CCC(N)=O)C(=O)N[C@H](C(=O)N[C@H](C(=O)NCC(=O)N[C@H](C(=O)N[C@@H](C)C(=O)N[C@@H](CCC(N)=O)C(=O)N[C@@H](CCC(N)=O)C(=O)N[C@@H](C)C(=O)N[C@@H](C)C(=O)N[C@@H](CC(N)=O)C(=O)N[C@H](C(=O)N[C@@H](C)C(=O)N[C@@H](C)C(=O)N[C@H](C(=O)N[C@@H](CC(C)C)C(=O)N[C@@H](CCCCN)C(N)=O)[C@@H](C)O)C(C)C)C(C)C)[C@@H](C)CC)[C@@H](C)O)[C@@H](C)CC)[C@@H](C)O)[C@@H](C)O)C(C)C)[C@@H](C)CC", "target or system": "Acinetobacter baumannii", "system": "ATCC 19606, CAMHB with 10% mouse serum", "setting": "150 mM NaCl", "measurement": "MIC", "value": "1 µg/mL"}
{"Structure (SMILES)": "Cc1ccc(N2CC3CC(C2)N3C)cc1C(=O)NC1(c2ccc3c4c(cccc24)C(=O)N3C)CC1", "target or system": "rep papain-like protease", "assay": "enzyme activity", "setting": "20 µM", "measurement": "inhibition", "value": "106%"}
{"Structure (SMILES)": "CC(C)CC(NC(=O)C(NC(=O)C(C)NC(=O)OCc1ccccc1)C(C)C)C(=O)NC(Cc1ccccc1)C(=O)C(F)(F)F (mixture of isomers)", "target or system": "rep main protease", "assay": "inhibitor", "setting": "concentration not given, prolonged incubation", "measurement": "Ki decrease", "value": "30 fold"}
{"Structure (SMILES)": "CCCCCCCCCCCCCCCC(=O)N[C@@H](CCC(=O)NCCOCCOCCC(=O)NCCOCCOCCC(=O)NCCCC[C@H](NC(=O)[C@H](CC(=O)O)NC(=O)[C@H](CC(C)C)NC(=O)[C@H](Cc1ccc(O)cc1)NC(=O)[C@H](CCCCN)NC(=O)[C@H](CO)NC(=O)[C@H](Cc1ccc(O)cc1)NC(=O)[C@H](CC(=O)O)NC(=O)[C@H](CO)NC(=O)[C@@H](NC(=O)[C@H](Cc1ccccc1)NC(=O)[C@@H](NC(=O)CNC(=O)[C@H](CCC(N)=O)NC(=O)[C@@H](CO)NC(=O)[C@@H](N)Cc1c[nH]cn1)[C@@H](C)O)[C@@H](C)O)C(=O)N[C@@H](CCCNC(=N)N)C(=O)N[C@@H](CCCNC(=N)N)C(=O)N[C@@H](C)C(=O)N[C@@H](CCC(N)=O)C(=O)N[C@@H](CC(=O)O)C(=O)N[C@@H](Cc1ccccc1)C(=O)N[C@H](C(=O)N[C@@H](CCC(N)=O)C(=O)N[C@@H](Cc1c[nH]c2ccccc12)C(=O)N[C@@H](CC(C)C)C(=O)N[C@@H](CC(C)C)C(=O)N[C@@H](CC(N)=O)C(=O)N[C@H](C(=O)NCC(=O)NCC(=O)N1CCC[C@H]1C(=O)N[C@@H](CO)C(=O)N[C@@H](CO)C(=O)NCC(=O)N[C@@H](C)C(=O)N1CCC[C@H]1C(=O)N1CCC[C@H]1C(=O)N1CCC[C@H]1C(=O)N[C@@H](CO)C(N)=O)[C@@H](C)O)C(C)C)C(=O)O", "assay": "measured: CK", "system": "rhesus monkey, male", "setting": "subcutaneous, 300 µg/kg once daily, 28 days", "measurement": "serum enzyme activity", "value": "123 ± 49 U/L"}
{"Structure (SMILES)": "C[n+]1cc(NC(=O)c2cccc(C(=O)Nc3cc4ccccc4[n+](C)c3)n2)cc2ccccc21.[I-].[I-]", "target or system": "tick-borne encephalitis virus", "assay": "binding, thiazole orange or ThT displacement", "setting": "concentration not given, TBEV-5", "measurement": "probe displacement", "value": "~100%"}
{"Structure (SMILES)": "CSCC[C@@H](C=O)NC(=O)[C@H](CC(C)C)NC(=O)[C@H](CC(C)C)NC(C)=O", "target or system": "rep main protease", "assay": "thermal stability", "measurement": "ΔTm", "value": "2.88 °C"}
{"Structure (SMILES)": "CC(C)(C)OC(=O)C[C@H](NC(=O)OCc1ccccc1)C(=O)CBr", "target or system": "rep main protease", "assay": "isothermal titration calorimetry", "setting": "pH 7.4, 25 °C, 2% DMSO", "measurement": "entropic contribution -TΔS", "value": "-6.7 kcal/mol"}
{"Structure (SMILES)": "O=c1cc(-c2ccc(O)cc2)oc2c([C@@H]3OC[C@H](O)[C@H](O)[C@H]3O)c(O)c([C@@H]3O[C@H](CO)[C@@H](O)[C@H](O)[C@H]3O)c(O)c12", "target or system": "rep papain-like protease", "assay": "enzyme activity, inhibitor", "setting": "8 µM", "measurement": "inhibition", "value": "53.1%"}
{"Structure (SMILES)": "CC(C)C[C@@H]1NC(=O)[C@H](CCCNC(=N)N)NC(=O)[C@@H]2CCCN2C(=O)[C@@H]2CSSC[C@H](NC(=O)CNC(=O)[C@@H]3CCCN3C(=O)[C@H](CCCCN)NC(=O)[C@H](CC(=O)O)NC(=O)[C@@H](NC(=O)CN)C(C)C)C(=O)N[C@@H](CCCNC(=N)N)C(=O)N[C@@H](Cc3ccc(O)cc3)C(=O)N[C@@H](CC(C)C)C(=O)N[C@@H](Cc3ccccc3)C(=O)NCC(=O)NCC(=O)N[C@H]3CSSC[C@H](NC(=O)CNC1=O)C(=O)N[C@@H](CCCCN)C(=O)NCC(=O)N[C@@H](CCCCN)C(=O)NCC(=O)N[C@@H](Cc1c[nH]cn1)C(=O)N[C@@H](CC(=O)O)C(=O)N[C@@H](Cc1ccc(O)cc1)C(=O)N[C@H](C(=O)N[C@@H](C)C(=O)N[C@@H](Cc1c[nH]c4ccccc14)C(=O)N[C@@H](CC(=O)O)C(=O)NCC(=O)N[C@H](C(=O)N[C@@H](Cc1ccccc1)C(=O)N[C@@H](CO)C(=O)N[C@@H](CC(=O)O)C(=O)O)[C@@H](C)O)CSSC[C@H](NC(=O)[C@H](CC(=O)O)NC(=O)[C@H](CC(=O)O)NC(=O)[C@H](CC(=O)O)NC(=O)[C@H](CO)NC(=O)[C@H](CCCCN)NC3=O)C(=O)N2", "target or system": "SCN1A (Homo sapiens, UniProt P35498)", "assay": "sodium current, automated patch clamp", "system": "HEK293", "setting": "1 µM, 50 ms depolarizing pulse", "how to read": "reference: compound over control", "measurement": "inactivation time constant ratio", "value": "3.51 ± 0.26"}
{"Structure (SMILES)": "CCC[C@H](NC(=O)[C@H](CC(C)C)NC(=O)OCc1ccccc1)C(=O)C(=O)NCc1ccccn1", "target or system": "rep main protease", "assay": "thermal stability", "measurement": "ΔTm", "value": "2.41 °C"}
{"Structure (SMILES)": "CCOC(=O)/C=C/[C@H](C[C@@H]1CCNC1=O)NC(=O)[C@H](CC(C)C)NC(=O)[C@@H](NC(=O)O[C@H]1CCOC1)C(C)C", "target or system": "rep main protease", "assay": "enzyme activity, inhibitor", "setting": "50 µM", "measurement": "inhibition", "value": "76%"}
{"Structure (SMILES)": "COc1cc2c3c(c4cc(OC)c(OC)cc4c2cc1OC)CN1CCCCC1C3 (stereo not drawn)", "target or system": "rep main protease", "assay": "enzyme activity", "setting": "concentration not given", "measurement": "inhibition", "value": "no inhibition"}
{"Structure (SMILES)": "N#CC1=C(N)OC2=C(c3sc(N)c(C#N)c3CC2)C1c1ccccc1Cl (stereo not drawn)", "target or system": "Replicase polyprotein 1ab, nsp14 (rep, Severe acute respiratory syndrome-related coronavirus, UniProt P0C6X7)", "setting": "50 µM", "measurement": "inhibition", "value": "98.2 ± 6.51%"}
{"note": "Repeated from above:"}
{"Structure (SMILES)": "CCOC(=O)/C=C/[C@H](C[C@@H]1CCNC1=O)NC(=O)[C@H](CC(C)C)NC(=O)[C@@H](NC(=O)O[C@H]1CCOC1)C(C)C", "target or system": "rep main protease", "assay": "enzyme activity, inhibitor", "setting": "50 µM", "measurement": "inhibition", "value": "76%"}
